Results pooled from the literature.
Each numbered part is a random draw from the data of one study; scales do not carry over between parts. ± gives the spread as reported.

Series 1
Cell line: MCF7
Time: 72 h
SMILES | CC50
O=C(NCc1ccc(C(F)(F)F)cc1)c1cn(Cc2ccc(F)cc2)c2ccc(Oc3ccccc3)cc2c1=O | 20.9 ± 1.46 µM
O=C(NCc1ccccc1)c1cn(Cc2ccc(C(F)(F)F)cc2)c2ccc(Oc3ccccc3)cc2c1=O | 21.5 ± 0.39 µM
O=C(NCc1ccc(O)cc1)c1cn(Cc2ccc(F)cc2)c2ccc(Oc3ccccc3)cc2c1=O | 47.2 ± 3.17 µM

Mixed results
SMILES | tested on | assay | test system | setting | measurement | value
CCOc1c([C@H](C)n2nc(C)c3c(N)ncnc32)cc(Cl)c(F)c1[C@@H]1CNC(=O)C1 | – | – | human patients, Hodgkin lymphoma, plasma | oral, 30 mg, day 15, monotherapy | half-life | 10.4 ± 3 h
COc1cc(-c2nc3ccccc3c(=O)n2Nc2ccc([N+](=O)[O-])cc2[N+](=O)[O-])ccc1OCc1cn(CC(=O)Nc2ccccc2[N+](=O)[O-])nn1 | mushroom tyrosinase | enzyme activity | – | 40 µM, added: L-DOPA | inhibition | 20.3 ± 1.02%
O=C(/C=C/c1nccs1)Nc1ncccn1 | Candida albicans | – | – | concentration not given | antifungal activity | inactive
COc1cc(-c2nc3ccccc3c(=O)n2Nc2ccc([N+](=O)[O-])cc2[N+](=O)[O-])ccc1OCc1cn(CC(=O)Nc2ccc([N+](=O)[O-])cc2Cl)nn1 | mushroom tyrosinase | enzyme activity | – | 40 µM, added: L-DOPA | inhibition | 43.5 ± 1.37%
O=c1nc(NO)ccn1[C@@H]1O[C@H](CO)[C@@H](O)[C@H]1O | MRC-5 | – | – | – | IC50 | > 10 µM

Repeated from above (series 1):
SMILES | CC50
O=C(NCc1ccccc1)c1cn(Cc2ccc(C(F)(F)F)cc2)c2ccc(Oc3ccccc3)cc2c1=O | 21.5 ± 0.39 µM
